Measurements of several laboratories.
Numbered parts are unrelated; each lists some results of a single study.

Study 1
Target: Hepatocyte nuclear factor 3-alpha (Foxa1, Mus musculus, UniProt P35582, residues 1-468, full length assumed)
Method: EMSA with sequencing
Molecule type: double-stranded DNA, one strand shown
Medium: in vitro
Tested at: 10 and 20 nM
Notes: whole designed probe, mean of two concentrations, ends assumed
Relative to: negative control set to 0
Direction: higher = stronger binding
Constant ends, left off below: GTGAGCGGTGCCCATTGATGGGGAAC … TTTCACTGGGATCGTGGGGAC
Construct (chain): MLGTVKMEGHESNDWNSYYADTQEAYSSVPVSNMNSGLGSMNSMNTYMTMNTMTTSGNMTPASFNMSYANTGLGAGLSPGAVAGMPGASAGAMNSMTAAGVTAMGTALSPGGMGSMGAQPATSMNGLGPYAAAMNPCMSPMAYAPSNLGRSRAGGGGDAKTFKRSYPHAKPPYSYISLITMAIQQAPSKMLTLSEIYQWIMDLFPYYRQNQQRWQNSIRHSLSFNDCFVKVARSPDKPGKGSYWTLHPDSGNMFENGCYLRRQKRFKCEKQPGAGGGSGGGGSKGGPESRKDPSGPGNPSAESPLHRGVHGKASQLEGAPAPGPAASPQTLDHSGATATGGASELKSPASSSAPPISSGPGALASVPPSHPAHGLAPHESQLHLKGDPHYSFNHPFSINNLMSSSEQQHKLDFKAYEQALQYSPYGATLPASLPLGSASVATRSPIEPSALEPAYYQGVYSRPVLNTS
Under “normalised bound fraction”, `TCTTTAATTTGGATGACTCTCCTTAGAGCAGCCAAATCAGCTTCTTGCTGATAACAGTAATCAGGTTTTATACTAAAGTCCCCAGTTAGGCAGAGTAATCTGGAAGCAGCCTGTTATTGATCTGTGTTATGGAAGGTTCTTTTCCACTGAGGAGACTGAATATTTTATACTGAAACCTTTTACTTCCTGTACC` is recorded as -0.0497 ratio.
`AGACACCATTTCGAACAAAACAAAACAGTTGCTCCCTTCCCTCTTGTTCCTCCCACTATTGCTGTCATTGCAAGCTCCTAGGAGCTGCCCTGTTATTTACATTGCAGTGGGCATGACTCAGGGAAGCAGCAGGCAGGGAGGAGGATGGGAAGCAAGAACCCAGCTGGGGCTAAGCAAGGTCCAGCTCATAATA` — result for “normalised bound fraction”: 0.403 ratio.
Under “normalised bound fraction”, `ATCTTCCCCCTCTTCCTTGCCCCACCAGCTCACCTTCCCGGGTTATTTGCAGATAGGAAAATAAATAAAGCCGGCATTCGTTAACCCTCTTCTGGCGCAAACTGCTGTTTACTTTGGATCTAACATGGTCCTTTGGCGACGCCAGGCTCCGGGAGAGCAAAGCACCGTGTCAGGGCCATGATCCGGGGTGGCC` is recorded as 0.427 ratio.
`TCCTCATTAAATTTCAAGTTTCCACAAAATAAGAAAAGAAACAACTAAAGAAGAAATTGTTGGAAGGCATGGAGCAAAGTGTAAGAACAACTAAGTAATCTTGTACATTTTGCATTTTTAAAAAATTCAGTGGCCATAATACCACTGGCCAACAGGCTGATCAAATAATCCCTGAAACAAAGAGTTATATGTT`: “normalised bound fraction” 0.0812 ratio.
`CAAGTTTGTGGTCCAGGAGCAACAGGTTATGCCATACAGCCTAGGTGTGTAGTAGGCTACACACCGTCTATGTTCCATGACTCATCTCTACAATGTTTGCACAATGATGAAATCCCATGTCACATTTCTCAGAACATACCCCTGTTGTTAAGCGATACATGACTGTACTTTTTTTAAAAAGTCCAAGGATATA`: “normalised bound fraction” 0.45 ratio.

Study 2
Target: Sal-like protein 4, full length isoform A (SALL4, Homo sapiens, UniProt Q9UJQ4, residues 1-1053)
UniProt Q9UJQ4, sequence (whole entry, looked up): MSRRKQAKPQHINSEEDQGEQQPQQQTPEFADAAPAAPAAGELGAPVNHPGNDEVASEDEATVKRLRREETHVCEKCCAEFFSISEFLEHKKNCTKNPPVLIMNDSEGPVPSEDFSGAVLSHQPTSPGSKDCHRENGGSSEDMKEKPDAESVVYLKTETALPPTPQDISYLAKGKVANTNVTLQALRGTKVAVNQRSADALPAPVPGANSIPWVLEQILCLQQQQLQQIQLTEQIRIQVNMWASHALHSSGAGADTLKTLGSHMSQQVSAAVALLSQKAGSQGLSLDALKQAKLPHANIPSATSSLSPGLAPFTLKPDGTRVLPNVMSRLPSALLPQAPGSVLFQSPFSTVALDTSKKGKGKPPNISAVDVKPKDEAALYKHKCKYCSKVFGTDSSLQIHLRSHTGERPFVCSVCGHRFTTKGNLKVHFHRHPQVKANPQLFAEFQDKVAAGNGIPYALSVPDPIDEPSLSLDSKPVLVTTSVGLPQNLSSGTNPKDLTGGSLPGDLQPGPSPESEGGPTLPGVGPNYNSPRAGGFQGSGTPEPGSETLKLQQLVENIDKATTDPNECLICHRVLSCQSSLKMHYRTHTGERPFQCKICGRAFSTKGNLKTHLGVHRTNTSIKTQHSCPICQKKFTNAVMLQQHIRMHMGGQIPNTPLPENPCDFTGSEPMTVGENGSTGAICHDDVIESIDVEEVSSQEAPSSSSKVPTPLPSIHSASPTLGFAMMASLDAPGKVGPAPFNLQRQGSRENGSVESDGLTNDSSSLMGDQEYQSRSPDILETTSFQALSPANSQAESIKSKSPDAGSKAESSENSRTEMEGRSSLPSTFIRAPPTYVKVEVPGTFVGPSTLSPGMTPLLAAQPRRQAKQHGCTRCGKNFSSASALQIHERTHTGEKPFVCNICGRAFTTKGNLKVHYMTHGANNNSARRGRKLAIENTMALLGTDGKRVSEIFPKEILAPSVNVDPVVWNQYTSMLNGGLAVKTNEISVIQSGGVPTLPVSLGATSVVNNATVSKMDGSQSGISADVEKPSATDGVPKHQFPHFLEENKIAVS
Method: universal PBM
Molecule type: double-stranded DNA, one strand shown
Medium: in vitro
Tested at: 600 nM
Notes: 8-mer, flanks averaged, mean of replicates
Direction: higher = stronger binding
For `GTTACTCA`, the E-score was 0.155.
`GAAAGATA` gave an E-score of 0.224.
The E-score of `ACCACGGT` is reported as -0.204.
With `AAACGAAG` the E-score was 0.0906.
`CAAGCAGG` gave an E-score of -0.173.
For `ATCTTAGC`, the E-score was 0.0312.
The E-score of `ACGTATGC` is reported as 0.0528.
For `GAGTGGAC`, the E-score was -0.138.
`AATCGTAG` has an E-score of 0.248.
`GCAAACTA` gave an E-score of 0.0497.
With `GACTAGGA` the E-score was -0.00307.
`AGGCACTA` has an E-score of -0.121.
With `AGTCATGC` the E-score was -0.128.
For `AGCGGGAA`, the E-score was -0.151.
With `CATCTTTC` the E-score was 0.131.
For `AAGATCGA`, the E-score was 0.114.
`GGTGCAGA` gave an E-score of -0.177.
With `ATCTCTAA` the E-score was 0.117.
With `AAGCGGAC` the E-score was -0.27.

Study 3
Target: RNA binding protein fox-1 homolog 2, RRM domain, GST-SBP tag (RBFOX2, Homo sapiens, UniProt O43251-10, residues 100-194)
Method: RNA Bind-n-Seq
Molecule type: RNA
Medium: in vitro
Tested at: 365 nM
Notes: natural RNA segment, single round, ends assumed
Relative to: no-protein control
Direction: higher = stronger binding
Constant ends, left off below: GGGAGUUCUACAGUCCGACGAUC … UGGAAUUCUCGGGUGCCAA
Target sequence (chain): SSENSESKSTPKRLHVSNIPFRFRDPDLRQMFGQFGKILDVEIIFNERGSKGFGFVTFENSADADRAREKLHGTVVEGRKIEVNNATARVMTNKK
For `UCAAAGCAGGCCCUCCAGAAACAGUUUGUAGCAACGUCUAGGAUGUGAAGUUUGAAGAUUUCUGAUUAGCUUUCAUCCGGUCUUCAUCUCUAUUUAUCUUAGAAGUUUAG`, “RBNS enrichment (R)” read 1.12.
`UCUUGUGGAGUUCAACUCUGUCAAACGAUUGGAAAGGGCAUCCAUUUCCAGAUCUUUGGCAUUUUCCCCGCGCUGACUCUUUGAUGAUCCUUCACUGUGGCCUUUUCAAG` — result for “RBNS enrichment (R)”: 0.294.
`GUCCCCCAUUCCUAGGCCUAACCUUGCUUGAACAGGGUUGGGCAAAGCUGCGGUAUUAUUGGUUGAGAGGCGUCUUCUCACCUCUGGCUGAGAGCACUGGUGGGUUUGCA`: “RBNS enrichment (R)” 6.1.
`CGGGCUGGGGGCAGGAGGAAUCUGCCAAAGACCGACAGUCUUCCUUUACUGCACUUCACAAGGUUCUAAGAUGUGGAGAGUUCACUUGGAUUGCAGUAGCCCAUUGGUUG` — result for “RBNS enrichment (R)”: 0.743.
`GCCUCUUGUAGUGAUGAUGGGGAGGUAGCCUUCUGGGAGUAUCACCAGCCUGCAGGUCUCUGAGCUAUAGCUUGACUUGGGAGUCUUGAUUCCCACAGAAAACGUCCUAA` — result for “RBNS enrichment (R)”: 0.705.
`UGAGUGCCUUUUUGAACGCUGCUCCACAGGGCCUGGGUUUUCUUGAGCUCUUCUGUCCAAAGAUGGCUGCGGGCUAAGCAAGGUCCUGCCCUGGGUGGAUACUUGAACCA` — result for “RBNS enrichment (R)”: 0.233.
`AGUGUUUAAUUUUGUUGUCCUUCUUAAUGUUCUCAGUCAAAUAAAUGGGUGGUUUCAUCUGUUUGGGACAUGUGGGUGUCUUCUUUUUGGGAAGCACAGUCUUUGCAACC` — result for “RBNS enrichment (R)”: 0.372.
`UGUGUCCAAUAGCAAGUUAAGGAACCUAGCGCAUCAAAUUUUGUUUUCUUCAUUCAUUUGGAACCUUAUUUUCGCAAAAAACCUAGCUGGAAUAAUAAUGCCAUAUUGUA` — result for “RBNS enrichment (R)”: 1.21.

Study 4
Target: RING finger protein unkempt homolog, zinc fingers 1-6, GST-SBP tag (UNK, Homo sapiens, UniProt Q9C0B0, residues 30-357)
UniProt Q9C0B0, sequence (30-357, looked up): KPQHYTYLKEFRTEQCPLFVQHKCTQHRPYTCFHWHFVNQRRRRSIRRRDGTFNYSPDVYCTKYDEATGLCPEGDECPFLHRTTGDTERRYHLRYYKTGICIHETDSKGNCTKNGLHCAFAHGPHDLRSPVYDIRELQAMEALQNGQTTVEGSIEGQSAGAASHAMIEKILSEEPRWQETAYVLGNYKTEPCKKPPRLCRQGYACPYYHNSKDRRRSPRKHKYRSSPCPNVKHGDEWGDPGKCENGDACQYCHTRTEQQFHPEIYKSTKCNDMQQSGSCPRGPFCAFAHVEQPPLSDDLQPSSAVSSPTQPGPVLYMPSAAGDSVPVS
Method: RNA Bind-n-Seq
Molecule type: RNA
Medium: in vitro
Tested at: not given
Notes: RNA with constant flanks, human and mouse sites, ends assumed
Relative to: input RNA pool
Direction: higher = stronger binding
Constant ends, left off below: GGGAGUUCUACAGUCCGACGAUC … CAACAGAGGAUUGAGCAUCA
`UAGGCCCUGGAUUAUGUAGAAGAUUUAGAUACUAAGCCUCAAGAGACGUCUUUCCUCUCAUUUACGGUCUUCCUGCAUAUUUAAAAUUUCUAAUACGGUAGACAGAGUCGGUGUCUUUGA` gave a bound/input enrichment of 1.5 ratio.
`AUGGAACAGAAACAUAGAGAGGAACUGGAGCAAUUGAAGCUGACUACUAAGGAGAAUAAGAUAGAUUCUGUUGCUGUUAACAUUUCAAACUUGGUGCUUGAGAAUCAGCCACCUCGGAUA` gave a bound/input enrichment of 0.388 ratio.
`GAGGAAGGCUGGUGGAAAGAAGACCAACUGCAGAGAUUGGGCGAGACGUCUAGAGGCGGGGCUGAUGAGGAAGCCUGACAUUUCCCUUGACCGAGAGGAUCGUGAUGCAUUUCAGAUGAG` has a bound/input enrichment of 0.223 ratio.
The bound/input enrichment of `AUUCCGUUCAUUGAGACCUCAGCAAAGACAAGACAGGGUGUUGACGAUGCCUUCUAUACAUUAGUCCGAGAAAUUCGAAAACAUAAAGAAAAGAUGAGCAAAGAUGGGAAGAAGAAGAAG` is reported as 0.648 ratio.
`AAGAACUUGAAUCUCAACACAGUAUCUUAAAAGAUGAGGUAACUUAUAUGAAUAAUCUUAAGUUAAAACUUGAAAUGGAUGCUCAACAUAUAAAGGAUGAGUUUUUUCAUGAACGGGAAG` gave a bound/input enrichment of 0.203 ratio.
The bound/input enrichment of `GAUGUGAAAUUUUUCUUUUUGUUUCUGCUUUUUGGCACAUAAAUUGGCUAUUUCUUCUGGAGUGGAUAAGUACAACAGUGACAAAUACAUGGAACAGUAAAGAAGACCUUGCUCUUAAAU` is reported as 0.225 ratio.
`AGGAUGAACCGGACAGAUUCCGAAAUAUAUGAGGAUGCUGUAGAACUUCAGCAGUUUUUUAUUAGAAUUCGUGAUGAACUCUGCAAAAAUGGAGAGAUCCUUCUUUCUCCAGCACUCAGC` has a bound/input enrichment of 0.391 ratio.
`CUUCCUUUCUGACCCUUUCCGGGCGUUCAAGAUGUCGAAGCGAGGACGCGGUGGGUCCUCCGGGGCGAAAUUCCGGAUUUCCCUGGGUCUUCCGGUCGGAGCUGUGAUCAACUGUGCAGA` gave a bound/input enrichment of 0.123 ratio.

Excerpt of the above (study 2):
For `AAGATCGA`, the E-score was 0.114.
`GAAAGATA` gave an E-score of 0.224.
The E-score of `ACGTATGC` is reported as 0.0528.
For `GAGTGGAC`, the E-score was -0.138.
With `CATCTTTC` the E-score was 0.131.
With `GACTAGGA` the E-score was -0.00307.
